Measured values gathered from unrelated publications.
Every numbered part comes from another study and shows a few of its results, in no order. Positions count from the first letter of the parent shown.

Block 1
Target: Sal-like protein 4, full length isoform A (SALL4, Homo sapiens, UniProt Q9UJQ4, residues 1-1053)
UniProt Q9UJQ4, sequence (whole entry, looked up): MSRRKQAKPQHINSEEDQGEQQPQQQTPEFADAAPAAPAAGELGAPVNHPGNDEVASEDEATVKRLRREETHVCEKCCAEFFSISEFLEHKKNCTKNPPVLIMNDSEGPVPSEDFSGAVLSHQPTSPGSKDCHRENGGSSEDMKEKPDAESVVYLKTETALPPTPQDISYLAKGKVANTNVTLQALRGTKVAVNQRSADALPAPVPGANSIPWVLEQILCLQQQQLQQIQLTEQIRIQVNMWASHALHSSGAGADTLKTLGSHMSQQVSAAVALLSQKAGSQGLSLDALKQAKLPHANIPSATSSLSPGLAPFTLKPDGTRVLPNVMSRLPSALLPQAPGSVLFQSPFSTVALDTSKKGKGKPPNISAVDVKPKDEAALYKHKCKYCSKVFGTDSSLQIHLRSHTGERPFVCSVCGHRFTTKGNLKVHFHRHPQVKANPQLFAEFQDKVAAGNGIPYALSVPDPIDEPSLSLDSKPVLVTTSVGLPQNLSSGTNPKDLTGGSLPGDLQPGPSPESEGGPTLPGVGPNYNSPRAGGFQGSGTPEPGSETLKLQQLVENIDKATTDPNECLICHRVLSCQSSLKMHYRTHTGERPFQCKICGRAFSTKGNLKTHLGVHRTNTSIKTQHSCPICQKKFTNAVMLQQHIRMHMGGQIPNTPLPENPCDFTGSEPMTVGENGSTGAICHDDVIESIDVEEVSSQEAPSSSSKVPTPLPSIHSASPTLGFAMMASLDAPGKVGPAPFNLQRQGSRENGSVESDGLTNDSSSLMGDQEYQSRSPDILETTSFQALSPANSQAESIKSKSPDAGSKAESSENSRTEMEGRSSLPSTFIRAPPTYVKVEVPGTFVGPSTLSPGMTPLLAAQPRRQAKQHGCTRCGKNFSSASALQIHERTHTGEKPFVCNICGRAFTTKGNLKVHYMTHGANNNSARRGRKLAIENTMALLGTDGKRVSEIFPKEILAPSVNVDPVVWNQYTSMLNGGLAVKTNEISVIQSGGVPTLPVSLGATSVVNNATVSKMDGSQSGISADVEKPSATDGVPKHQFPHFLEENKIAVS
Method: universal PBM
Molecule type: double-stranded DNA, one strand shown
Sample: in vitro
Concentration: 600 nM
Notes: 8-mer, flanks averaged, mean of replicates
Reading: higher = stronger binding
Measurement: E-score
CCAGTAAC: -0.0676
CAGCCCAC: -0.267
GGAACTCC: -0.221
TCAACCAA: 0.129
AGTGGAAT: 0.19
ATTCGTAC: 0.196
CGTGGGTA: -0.286
AACGGGGT: -0.305
ACTACCCA: -0.0695
TTATGCAA: 0.279
TAGGACTA: 0.0437
CTTTGAGA: 0.116
AGGCGAGA: -0.206
AGCCGTAT: -0.0109
CACCTTGG: -0.232
GTCTGAAA: -0.0447
ATTGCTCG: -0.0271
CAGCAGCA: -0.105
GTACGCAA: -0.0155
GGCTGGAA: -0.187
CCGACTAC: -0.185
AGGTGAAC: -0.12
CCGCACCA: -0.21
ATGGATTG: 0.142
AAAGTAAT: 0.322

Block 2
Target: CCND1, cyclin fold, Cln2 fusion (human)
Method: yeast growth competition, sequencing
Sample: yeast
Notes: weak parent motif
Reference: not given
Reading: higher = stronger binding
Measurement: normalised enrichment score
Parent: SLBP docking peptide (human); ARYKRKLLINDFG; partner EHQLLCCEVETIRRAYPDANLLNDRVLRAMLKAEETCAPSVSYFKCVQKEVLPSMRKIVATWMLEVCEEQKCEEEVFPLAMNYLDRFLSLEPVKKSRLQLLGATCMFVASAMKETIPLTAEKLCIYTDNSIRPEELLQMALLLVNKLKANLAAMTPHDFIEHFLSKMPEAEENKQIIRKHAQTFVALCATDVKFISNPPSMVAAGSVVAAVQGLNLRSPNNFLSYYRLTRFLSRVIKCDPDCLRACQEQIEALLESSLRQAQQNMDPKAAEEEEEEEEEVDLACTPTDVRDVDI
G13N: -0.0475
R5I: 0.375
K4L: 0.727
K6E: 0.142
K6C: 0.535
L8K: -0.729
G13E: 0.346
K4F: 0.556
R2T: 0.557
K4R: -0.449
D11P: 0.966
G13Y: 0.243
N10T: 0.0937
I9K: 0.302
K6M: -0.157
L7F: 0.0828
G13Q: 0.0177
K4E: -0.471
K4I: 0.105
K4S: -0.34

Block 3
Target: Ras GTPase-activating protein-binding protein 1, RRM domain (G3BP1, Homo sapiens, UniProt Q13283)
UniProt Q13283, sequence (whole entry, looked up): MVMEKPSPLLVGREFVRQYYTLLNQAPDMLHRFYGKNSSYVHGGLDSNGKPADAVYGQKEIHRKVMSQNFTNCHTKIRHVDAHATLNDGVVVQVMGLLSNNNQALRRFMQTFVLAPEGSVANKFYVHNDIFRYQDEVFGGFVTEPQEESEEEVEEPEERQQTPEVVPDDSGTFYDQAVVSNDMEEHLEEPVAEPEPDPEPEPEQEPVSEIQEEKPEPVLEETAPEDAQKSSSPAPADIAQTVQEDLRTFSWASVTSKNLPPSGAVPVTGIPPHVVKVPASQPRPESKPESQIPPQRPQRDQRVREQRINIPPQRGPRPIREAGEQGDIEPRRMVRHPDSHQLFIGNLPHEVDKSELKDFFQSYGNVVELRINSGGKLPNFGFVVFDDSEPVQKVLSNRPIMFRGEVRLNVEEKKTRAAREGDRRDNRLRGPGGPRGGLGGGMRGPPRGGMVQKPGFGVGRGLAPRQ
Method: RNA Bind-n-Seq
Molecule type: RNA
Sample: in vitro
Concentration: 1 µM
Notes: whole 134-nt RNA, ends assumed
With: 150 mM KCl
Reference: input library
Reading: higher = stronger binding
Measurement: log2 enrichment
All sequences stand within: GGGAGUUCUACAGUCCGACGAUC … UGGAAUUCUCGGGUGUCAAGG
CCUGUGCUACACAUCGUAUGUACCGAAUCGGGGAAAAAAGGGGAAAAAAGGGAAAAAAGGAAAGUAUUAUGUUACGCCGUUCGGAUCUGC: -0.135
UGGCCCUGGUGGCAUGCGGGGAGGAAGAGGUGGCCUCAUGGAUCGUGGUGGUCCCGGCGGAAUGUUCAGAGGUGGCCGUGGUGGAGACAG: 0.925
CCUCAAGUCCUGUGCUACACAUCGUAUGUACCGAAUCGGAGGGGAGGGAGGGGAAAGUAUUAUGUUACGCCGUUCGGAUCUGCACUUCCA: 0.443
CCCUGUGGGCCUUGCUCAGAGCGGAGAAAGCAUUUGUUUGUACAAGAUCCGCAGACGUGUAAAUGUUCCUGCAAAAACACAGACUCGCGU: -0.13
GCAGGAAGUAAAAACAAAUGGAAAUGCUUCGGAUAGUGGCAGGGGGGGGGGUUGCUAAGGAAAGGGUGGGAUGGGAGUGGGUAAAGAGUU: 0.772
CCUCAAGUCCUGUGCUACACAUCGUAUGUACCGAAUCGGGUUGGUUGGGUUGGAAAGUAUUAUGUUACGCCGUUCGGAUCUGCACUUCCA: -0.279
AAGUCCUGUGCUACACAUCGUAUGUACCGAAUCGGAAAAAGGUUUUUUUGGAAAGGAAAGUAUUAUGUUACGCCGUUCGGAUCUGCACUU: -0.364
UUCACCAGUUUCACUGUGAGCCUCAACGAGCUGGAGACAGGCAUGGAGAAGACCCUGCCACCCACGGACUGCCGCCUGCGCCCUGACAUC: -0.00598
ACCAUGCAGGUGGGCAUCUUUGGGAAGUGGGGCAAGGGGGGGAUAGGGAGGGGGGUAACACUUUGGGAACAGGUGGUAAAAGGUCGUUUC: -0.521
CAAGUCCUGUGCUACACAUCGUAUGUACCGAAUCGGAAAGGAAAAAGGAAAAAGGAAAGUAUUAUGUUACGCCGUUCGGAUCUGCACUUC: -0.0656
ACCUUGCAGGUGGGCAUCUUUGGGAAGUGGGGCAAGGGGGGGAUAGGGAGGGGGGUAACACUUUGGGAACAGGUGGUCCCAGGUCGUUUC: -0.537
CAGAGACAACACGCACCCACACAGACACAGAGGGAAGGGGUUGGGAUGGGGACAGGGUGCACAGCAGGGCGGGGUAGGACCCCAGCCCCU: -0.0841
GUCCUGUGCUACACAUCGUAUGUACCGAAUCGGAAAAAAGGGAAAAAAGGAAAAAAGGAAAGUAUUAUGUUACGCCGUUCGGAUCUGCAC: 0.0672
ACCAUGCAGGUGGGCAUCUUUGGGAAGUGGGGCAAGGGGGGGAUAGGGAGGGGGGGAACACUUUGGGAACAGGUGGUCCCAGGUCGUUUC: 0.348

Single results of other studies
PhoQ, residues 284 288 289 292 302 303 AGGCYF — fold induction (PhoP, residues 12 14 15 18 19 SYFRT (Escherichia coli, UniProt P23836); Sort-seq, measured: YFP reporter; E. coli; PhoQ-PhoP variant library, with: 10 µM Mg2+; reference: high Mg2+ state, higher = stronger signaling): 1.84
